Measured values of several laboratories.
Protocols differ between the studies behind these lines. “And” joins repeats or separate records; there may be more than shown. Numbers after ± are the reported error.

SMILES | tested on | test | system | conditions | scale | measurement | result
CSCCNc1nc(SCCC(F)(F)F)nc2c1ncn2[C@@H]1O[C@H](COP(=O)(O)OP(=O)(O)C(Cl)(Cl)P(=O)(O)O)[C@@H](O)[C@H]1O |  | light transmittance aggregometry | human patients, platelet-rich plasma | dose not given, 2 h, together with: ADP 5 µM | baseline: patients | patients with IPA above 90% | 5%
Oc1c(Br)cc(Oc2ccc(Br)cc2Br)cc1Br |  | sulfonation | human liver cytosol |  |  | Vmax/Km | 47.8 ± 9.01 µL/min/mg
Cc1noc(C)c1-c1cc(C(O)(c2ccccn2)c2ccccn2)c2nc(C3CC3)[nH]c2c1 |  | item: CCR2 expression | human, peripheral blood | 3 mg, day 1, negative means increased expression |  | maximum inhibition | -8%
COc1ncc(-c2nc3c(n2C(C)C)[C@H](c2ccc(Cl)cc2)N(c2cc(Cl)cn(C)c2=O)C3=O)c(OC)n1 |  | antileukemic activity, item: treatment failure, indeterminate cause | human, acute myeloid leukaemia | 350 to 400 mg, high-dose, other doses |  | best overall response | 8.3%
COc1nc(NCc2cn(-c3ccc(NC(=O)c4ccc(C)cc4)cc3)nn2)nc(OC)n1 |  | MTT | normal colonocytes, rat | 72 h |  | maximum non-toxic concentration | 2.75 ± 1.12 nM
O=C(O)CNC(=O)Cc1ccccc1 |  |  | ventricular cardiomyocytes, C57BL/6 mouse | dose not given, 0.28 s |  | sarcomere length | 1.68 µm
C[C@@H](NC(=O)N1C(=O)[C@H](Cc2ccnc(N)c2)[C@H]1C(=O)O)C1CCCCC1 |  |  | human | iv infusion, 1.5 mg/kg/h, 24 h, unit not given | baseline: baseline | ACT AUEC | 135
CC(C)NCC(O)c1ccc(O)c(O)c1 (centres unmarked) |  |  | ventricular cardiomyocytes, C57BL/6 mouse | dose not given, 0.62 s |  | sarcomere length | 1.71 µm
Cc1cc([C@H]2C[C@H]3[C@@H](C)SC(N)=N[C@@]3(c3ccc(F)cc3F)CO2)on1 |  | item: Aβx-42 | Mus musculus wild-type, brain | subcutaneous, 50 mg/kg, 3 h |  | Aβ42 level | 0.2 ng/g
C[C@H](Oc1ccc(Br)cc1-c1ccon1)C(=O)O |  | muscle velocity recovery cycle | human, tibialis anterior muscle | 600 mg once daily, last response peak at 30 Hz, multiple ascending dose |  | difference from placebo | 6.78%
c1ccc(-c2n[nH]cc2-c2ccnc3ccccc23)nc1 |  | kinase binding, competitor, MIB/MS competition, item: YAK1 | Candida albicans cell lysate | 1 µM | baseline: DMSO | log2 fold change | 1.26
CCc1c(C)nc(-c2ccc(Cl)s2)nc1Nc1ccc(CC(=O)O)cc1 |  | item: PDE4D | C57BL/6J mice, MCD diet, liver | intraperitoneal, 0.3 mg/kg daily, MCD diet 6 weeks, dosed last two | baseline: vehicle | mRNA level | increased
CCN1CCN(Cc2ccc(Nc3ncc(F)c(-c4cc(F)c5nc6n(c5c4)[C@H](C)CCC6)n3)nc2)CC1 |  |  | human advanced solid tumours | 100 mg, phase Ia monotherapy RECIST 1.1 |  | disease control rate | 75%
CC(C)Cn1cnc2c(N)nc3ccccc3c21 |  |  | mouse psoriasiform model, skin | dose not given | baseline: control | CXCL1 level | 4 fold
CN[C@@H]1COc2c(S(=O)(=O)NC(=O)Nc3c4c(cc5c3CCC5)CCC4)cnn2C1 |  | item: IL-1β | human participants, whole blood ex vivo | 900 mg twice daily, multiple doses, 156 h, together with: LPS/ATP | baseline: baseline | inhibition | 99.3%
CN[C@@H](C)C(=O)N[C@H]1CN(S(=O)(=O)c2cccc(S(=O)(=O)N3CC[C@H]4CC[C@@H](C(=O)NC(c5ccccc5)c5ccccc5)N4C(=O)[C@@H](NC(=O)[C@H](C)NC)C3)c2)CC[C@H]2CC[C@@H](C(=O)NC(c3ccccc3)c3ccccc3)N2C1=O |  | RECIST 1.1 | advanced pancreatic cancer patients | dose not given, efficacy-evaluable, together with: AG |  | overall response rate | 20%
N#Cc1ccc2c(c1)[C@H]1CCCN(C(=O)c3ccc4[nH]cnc4c3)[C@H]1C2 |  | item: fasting C-peptide | human, Phase II trial | oral, 240 mg once daily, day 28, adjusted mean, SE |  | change from baseline | 0.03 pmol/L
Cc1cc([C@H]2C[C@H]3[C@@H](CF)SC(N)=N[C@@]3(c3ccc(F)cc3F)CO2)on1 |  | item: Aβx-42 | Mus musculus wild-type, brain | subcutaneous, 30 mg/kg, 1 h |  | Aβ42 level | 0.45 ng/g
NC(=O)c1cnc2[nH]ccc2c1N[C@@H]1[C@@H]2CC3C[C@H]1C[C@@](O)(C3)C2 |  | flow cytometry, item: CD4+ effector T cells | Japanese healthy subjects, peripheral blood | oral, 30 mg twice daily, day 4 |  | change from baseline | -0.02%

SMILES | tested on | test | system | conditions | scale | measurement | result
Cc1cc(F)cc2c(CCC(=O)N[C@@H]3C(=O)NC[C@H]3O)c(-c3ccc(F)cc3)[nH]c12 |  |  | APOL1 G2 mice, IFNγ-induced | 30 mg/kg twice daily, day 9 |  | urine albumin/creatinine ratio | 493 µg/mg and 223 µg/mg and 677 µg/mg and 2760 µg/mg and 1040 µg/mg and 5920 µg/mg
CC(C)[C@H](NC(=O)[C@H](Cc1ccc(O)cc1)NC(=O)[C@H](Cc1ccc(O)cc1)NC(=O)[C@@H]1CCCN1C(=O)[C@H](CCC(=O)O)NC(=O)[C@H](CCC(=O)O)NC(=O)[C@H](Cc1c[nH]c2ccccc12)NC(=O)[C@@H]1CCCN1C(=O)[C@@H](NC(=O)[C@H](CCC(N)=O)NC(=O)c1ccc2c(c1)C(=O)OC21c2ccc(O)cc2Oc2cc(O)ccc21)C(C)C)C(=O)N[C@H](C(=O)N[C@@H](CCCCN)C(=O)N[C@@H](CCCCN)C(=O)N[C@@H](CO)C(=O)N[C@@H](CO)C(=O)NCC(=O)NCC(N)=O)C(C)C |  | surgeon confidence in nerve | human head and neck surgery, nerves | 500 mg, not improved | baseline: white light | share of responses | 35.7%
C=CC[C@@H]1/C=C(\C)C[C@H](C)C[C@H](OC)[C@H]2O[C@@](O)(C(=O)C(=O)N3CCCC[C@H]3C(=O)O[C@H](/C(C)=C/[C@@H]3CC[C@@H](O)[C@H](OC)C3)[C@H](C)[C@@H](O)CC1=O)[C@H](C)C[C@@H]2OC |  |  | rhesus monkey kidney transplant, kidney allograft | dose not given | direction not given | Banff i score | 0
COc1cc2cc(-c3ccc(CC(=O)Nc4cc(C(C)(C)C(F)(F)F)no4)cn3)cnc2cc1OC |  |  | human RET-altered advanced solid tumours | 75 mg, phase I pooled, RECIST 1.1 |  | disease control rate | 51%
O=C(COc1ccc(Cl)cc1)NC12CC(c3nnc([C@H]4C[C@@H](OC(F)(F)F)C4)o3)(C1)C2 |  |  | healthy human, PBMC | 145 mg once daily, day 15, 24 h post-dose, median, together with: sodium arsenite ex vivo | baseline: baseline | CHAC1 mRNA change | -93.5%
N#Cc1ccn2c(-c3ccncc3)c(-c3ccc(F)cc3)nc2c1 |  | kinase binding, competitor, MIB/MS competition, item: IRE1 | Candida albicans cell lysate | 1 µM | baseline: DMSO | log2 fold change | -0.527
OC(CCN1CCCCC1)(c1ccccc1)C1CC2C=CC1C2 (centres unmarked) |  | resting-state EEG | healthy elderly humans | oral, 2 mg, eyes closed, LS mean | baseline: baseline | change in EEG Beta1-power Pz-O1 | -9.4%
FC(F)(F)Oc1cccc(-c2cnc3ccc(-c4ccncc4)nn23)c1 |  |  | MDA-MB-231 xenograft, NSG mouse | oral, 10 mg/kg daily, day 13 | higher = larger tumour | tumour size | 0.0983 a.u. and 0.211 a.u. and 0.137 a.u. and 0.0907 a.u.
Cc1ccc(C(=O)Nc2ccnc(S(N)(=O)=O)c2)c(N2CCCC(F)(F)CC2)n1 |  |  | Macaca mulatta, C-nociceptors | intravenous, 0.6 mg/kg bolus then 0.8 mg/kg/h, 30 min |  | activity-dependent slowing | 85.5 ± 2.63 % baseline
C[C@H]1O[C@@H](O[C@H]2CC[C@@]3(C)[C@@H](CC[C@]4(C)[C@@H]3C=C[C@]35OC[C@@]6(CCC(C)(C)C[C@H]63)[C@@H](O)C[C@]54C)[C@]2(C)CO)[C@H](O)[C@@H](O[C@@H]2O[C@H](CO)[C@@H](O)[C@H](O)[C@H]2O)[C@H]1O |  |  | chronic-plus-binge ethanol-fed mice | oral, 5 mg/kg/day, 7 d | baseline: body weight | liver index | 5.58% and 6.15% and 5% and 5.05% and 5.18% and 5.78%
C=CCc1cc(OC)c(O)c(C(=O)NCCO)c1 | THP-1 | pyroptotic LDH release |  | 2 µM, 40 min, together with: LPS then nigericin |  | inhibition | 24.3%
C[C@@H]1CCC[C@H](n2cnc(-c3cc(Cl)ccc3-n3cc(Cl)nn3)cc2=O)c2cc(ccn2)-c2c(cnn2C(F)F)NC1=O |  |  | pooled normal human plasma | IC2× aPTT, Actin FS reagent |  | concentration for aPTT prolongation | 140 nM
CC#CC(=O)N[C@H]1CCCN(c2c(F)cc(C(N)=O)c3[nH]c(C)c(C)c23)C1 |  |  | healthy volunteers, multiple ascending dose, serum | 10 mg once daily, day 21 |  | change from baseline in serum IgM | -6.2%
Cc1n[nH]c2ccc(-c3cc(OC[C@@H](N)Cc4ccccc4)cnc3-c3ccoc3)cc12 |  | kinase binding, competitor, MIB/MS competition, item: IRE1 | Candida albicans cell lysate | 100 nM | baseline: DMSO | log2 fold change | -0.11
c1ccc(-c2ccc(C(c3ccccc3)n3ccnc3)cc2)cc1 (centres unmarked) | THP-1 | pyroptotic LDH release |  | 2 µM, 40 min, together with: LPS then nigericin |  | inhibition | 29.9%
C=CCn1c(=O)c2cnc(Nc3ccc(N4CCN(C)CC4)cc3)nc2n1-c1ccc2c(n1)[C@@](O)(CC)CC2 |  |  | MDA-MB-231 xenograft, BALB/c nude mice | oral, 80 mg/kg once daily x 28, day 41 | baseline: vehicle | tumour growth inhibition | 49.6%
N#Cc1ccc2c(c1)[C@H]1CCCN(C(=O)c3ccc4[nH]cnc4c3)[C@H]1C2 |  |  | human, plasma | 160 mg, day 15, 360 h | baseline: placebo and baseline | change in HOMA-IR | 31.6%
NCC(=O)Nc1cncc(-c2nn3c(=O)cc(N4CCNCC4)nc3s2)c1 |  | ADP-induced platelet aggregation, light transmission aggregometry | human, stable CAD on aspirin, platelets ex vivo | subcutaneous, 0.075 mg/kg, 60 min post-dose, together with: ADP 20 µM |  | median inhibition | 63.2%
COc1nc(NCc2cn(-c3ccc(NC(=O)c4ccc([N+](=O)[O-])cc4)cc3)nn2)nc(OC)n1 |  | MTT | normal colonocytes, rat | 72 h |  | maximum non-toxic concentration | 3.48 ± 0.1 nM

For quick reference, copied from above:
SMILES | tested on | test | system | conditions | scale | measurement | result
C=CCc1cc(OC)c(O)c(C(=O)NCCO)c1 | THP-1 | pyroptotic LDH release |  | 2 µM, 40 min, together with: LPS then nigericin |  | inhibition | 24.3%
C[C@@H]1CCC[C@H](n2cnc(-c3cc(Cl)ccc3-n3cc(Cl)nn3)cc2=O)c2cc(ccn2)-c2c(cnn2C(F)F)NC1=O |  |  | pooled normal human plasma | IC2× aPTT, Actin FS reagent |  | concentration for aPTT prolongation | 140 nM
